Experimental data of several laboratories.
Lines come from different studies, so protocols differ. Numbers after ± are the reported error. In brackets after ≈: the same amount, converted by molar mass.
OPRL1: Nociceptin receptor (OPRL1, Homo sapiens, UniProt P41146)
OPRD1: Delta-type opioid receptor (OPRD1, Homo sapiens, UniProt P41143)

The chains behind the UniProt entries cited, without tags or fusion partners. Residues count along the entry.
UniProt P41146, whole entry: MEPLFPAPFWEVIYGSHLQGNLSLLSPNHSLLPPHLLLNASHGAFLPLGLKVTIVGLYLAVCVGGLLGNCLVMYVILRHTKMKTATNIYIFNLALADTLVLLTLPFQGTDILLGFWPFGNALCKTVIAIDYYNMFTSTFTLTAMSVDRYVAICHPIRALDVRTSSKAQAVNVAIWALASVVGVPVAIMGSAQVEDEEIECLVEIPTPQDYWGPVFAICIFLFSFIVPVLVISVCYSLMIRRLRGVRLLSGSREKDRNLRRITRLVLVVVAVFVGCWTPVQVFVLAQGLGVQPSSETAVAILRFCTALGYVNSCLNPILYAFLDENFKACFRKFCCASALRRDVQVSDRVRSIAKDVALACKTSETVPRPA
UniProt P41143, whole entry: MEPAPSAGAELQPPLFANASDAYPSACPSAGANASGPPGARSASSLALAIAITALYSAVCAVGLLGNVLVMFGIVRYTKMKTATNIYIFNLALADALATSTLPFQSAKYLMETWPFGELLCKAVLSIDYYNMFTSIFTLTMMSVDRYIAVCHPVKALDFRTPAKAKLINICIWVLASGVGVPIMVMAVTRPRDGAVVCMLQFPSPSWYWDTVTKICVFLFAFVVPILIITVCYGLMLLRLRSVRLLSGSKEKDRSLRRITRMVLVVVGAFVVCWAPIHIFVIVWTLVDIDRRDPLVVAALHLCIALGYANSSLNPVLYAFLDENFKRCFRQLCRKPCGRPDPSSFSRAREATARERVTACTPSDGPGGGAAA
UniProt P21462, whole entry: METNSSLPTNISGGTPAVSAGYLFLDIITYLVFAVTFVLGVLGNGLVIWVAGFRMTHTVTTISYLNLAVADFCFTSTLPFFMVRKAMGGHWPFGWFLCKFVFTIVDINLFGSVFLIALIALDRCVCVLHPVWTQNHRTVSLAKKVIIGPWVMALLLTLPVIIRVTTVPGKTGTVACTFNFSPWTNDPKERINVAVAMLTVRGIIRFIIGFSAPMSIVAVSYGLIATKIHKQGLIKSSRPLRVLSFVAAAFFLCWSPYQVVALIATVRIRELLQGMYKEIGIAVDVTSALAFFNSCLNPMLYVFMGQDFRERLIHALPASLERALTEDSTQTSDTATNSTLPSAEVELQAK
UniProt P21462, whole entry R190W: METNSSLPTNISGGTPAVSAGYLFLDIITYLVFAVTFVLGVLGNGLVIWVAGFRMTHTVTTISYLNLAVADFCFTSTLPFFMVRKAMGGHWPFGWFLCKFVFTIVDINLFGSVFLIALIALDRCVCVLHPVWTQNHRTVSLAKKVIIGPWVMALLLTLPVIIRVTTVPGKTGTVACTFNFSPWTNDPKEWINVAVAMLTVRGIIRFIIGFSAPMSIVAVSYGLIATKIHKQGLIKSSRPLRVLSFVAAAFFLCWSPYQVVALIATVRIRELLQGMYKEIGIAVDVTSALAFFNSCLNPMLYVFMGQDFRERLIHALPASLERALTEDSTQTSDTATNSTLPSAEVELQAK
UniProt P71968, 1-258: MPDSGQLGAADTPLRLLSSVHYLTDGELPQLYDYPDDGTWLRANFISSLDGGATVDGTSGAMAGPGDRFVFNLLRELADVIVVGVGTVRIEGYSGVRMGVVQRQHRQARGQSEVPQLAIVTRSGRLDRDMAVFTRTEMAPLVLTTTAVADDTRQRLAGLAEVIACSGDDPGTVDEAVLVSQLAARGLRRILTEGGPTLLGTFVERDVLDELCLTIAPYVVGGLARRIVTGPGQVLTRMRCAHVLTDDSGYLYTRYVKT
UniProt A0ACM8Q262, 1-400: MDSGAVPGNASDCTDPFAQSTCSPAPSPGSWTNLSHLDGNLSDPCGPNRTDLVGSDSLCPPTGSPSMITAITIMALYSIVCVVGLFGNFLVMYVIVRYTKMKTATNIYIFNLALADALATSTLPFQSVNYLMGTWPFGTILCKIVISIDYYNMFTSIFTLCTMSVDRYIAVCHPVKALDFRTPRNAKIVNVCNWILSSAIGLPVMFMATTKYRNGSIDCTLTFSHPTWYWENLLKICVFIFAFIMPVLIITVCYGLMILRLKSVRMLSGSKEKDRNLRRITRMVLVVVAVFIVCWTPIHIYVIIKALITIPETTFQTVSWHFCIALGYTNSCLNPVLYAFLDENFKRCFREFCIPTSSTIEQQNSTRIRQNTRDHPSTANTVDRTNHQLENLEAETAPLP
UniProt Q12866, whole entry, looked up: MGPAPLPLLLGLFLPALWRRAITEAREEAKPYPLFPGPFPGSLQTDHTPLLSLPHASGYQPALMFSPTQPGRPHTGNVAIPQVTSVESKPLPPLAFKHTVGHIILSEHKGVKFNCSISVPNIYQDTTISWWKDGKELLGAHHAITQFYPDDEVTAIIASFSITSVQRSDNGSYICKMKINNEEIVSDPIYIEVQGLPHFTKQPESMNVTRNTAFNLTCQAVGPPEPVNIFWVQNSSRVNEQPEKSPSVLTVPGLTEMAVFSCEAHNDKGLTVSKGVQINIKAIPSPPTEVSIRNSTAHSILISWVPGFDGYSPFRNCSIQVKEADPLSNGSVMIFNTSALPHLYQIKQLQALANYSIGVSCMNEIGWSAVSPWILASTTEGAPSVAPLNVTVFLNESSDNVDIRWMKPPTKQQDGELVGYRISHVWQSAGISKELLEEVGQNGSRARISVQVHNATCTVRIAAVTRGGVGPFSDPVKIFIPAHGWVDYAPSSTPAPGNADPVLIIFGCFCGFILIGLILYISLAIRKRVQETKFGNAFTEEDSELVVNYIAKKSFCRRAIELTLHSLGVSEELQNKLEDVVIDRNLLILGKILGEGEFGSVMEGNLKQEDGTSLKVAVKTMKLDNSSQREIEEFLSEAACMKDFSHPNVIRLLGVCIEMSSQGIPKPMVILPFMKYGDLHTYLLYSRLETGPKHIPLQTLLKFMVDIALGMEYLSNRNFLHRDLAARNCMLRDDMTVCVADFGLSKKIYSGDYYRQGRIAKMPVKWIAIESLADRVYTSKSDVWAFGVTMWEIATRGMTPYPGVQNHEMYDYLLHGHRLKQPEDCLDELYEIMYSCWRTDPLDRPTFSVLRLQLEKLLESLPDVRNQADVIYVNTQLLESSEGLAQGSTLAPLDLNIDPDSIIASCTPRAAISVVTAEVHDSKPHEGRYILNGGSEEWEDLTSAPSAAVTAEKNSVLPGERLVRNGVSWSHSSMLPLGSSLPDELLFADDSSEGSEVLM
UniProt Q12809, whole entry: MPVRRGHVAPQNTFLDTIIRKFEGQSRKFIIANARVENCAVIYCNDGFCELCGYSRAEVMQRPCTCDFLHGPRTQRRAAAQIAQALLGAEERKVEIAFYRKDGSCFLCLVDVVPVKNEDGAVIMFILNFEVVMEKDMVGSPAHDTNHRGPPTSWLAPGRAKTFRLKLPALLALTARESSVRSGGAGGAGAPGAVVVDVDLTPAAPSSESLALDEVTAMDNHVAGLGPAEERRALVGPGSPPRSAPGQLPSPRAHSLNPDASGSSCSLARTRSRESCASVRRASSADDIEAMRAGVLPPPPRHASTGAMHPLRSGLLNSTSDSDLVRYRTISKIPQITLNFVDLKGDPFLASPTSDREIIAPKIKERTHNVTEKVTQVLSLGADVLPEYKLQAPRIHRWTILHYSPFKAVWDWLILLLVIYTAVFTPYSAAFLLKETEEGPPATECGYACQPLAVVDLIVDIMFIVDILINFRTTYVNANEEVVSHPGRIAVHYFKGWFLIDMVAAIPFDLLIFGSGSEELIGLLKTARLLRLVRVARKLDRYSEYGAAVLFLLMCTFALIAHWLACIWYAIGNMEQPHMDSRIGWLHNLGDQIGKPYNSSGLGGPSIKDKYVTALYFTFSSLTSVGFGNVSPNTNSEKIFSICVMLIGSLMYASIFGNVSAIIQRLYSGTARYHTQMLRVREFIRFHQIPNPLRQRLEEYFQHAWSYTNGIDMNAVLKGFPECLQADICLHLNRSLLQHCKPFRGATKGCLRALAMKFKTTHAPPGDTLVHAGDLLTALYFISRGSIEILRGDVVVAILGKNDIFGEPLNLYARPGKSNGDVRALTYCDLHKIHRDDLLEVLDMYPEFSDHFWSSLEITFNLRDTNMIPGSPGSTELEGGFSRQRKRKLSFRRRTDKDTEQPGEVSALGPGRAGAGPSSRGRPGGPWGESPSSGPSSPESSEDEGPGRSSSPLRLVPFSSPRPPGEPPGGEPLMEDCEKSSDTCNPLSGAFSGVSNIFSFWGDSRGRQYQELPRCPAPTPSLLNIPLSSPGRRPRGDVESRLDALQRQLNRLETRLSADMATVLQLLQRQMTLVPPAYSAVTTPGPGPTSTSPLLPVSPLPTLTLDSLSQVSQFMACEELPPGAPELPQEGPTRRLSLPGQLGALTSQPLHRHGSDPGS
UniProt P30926, 22-498 limits assumed: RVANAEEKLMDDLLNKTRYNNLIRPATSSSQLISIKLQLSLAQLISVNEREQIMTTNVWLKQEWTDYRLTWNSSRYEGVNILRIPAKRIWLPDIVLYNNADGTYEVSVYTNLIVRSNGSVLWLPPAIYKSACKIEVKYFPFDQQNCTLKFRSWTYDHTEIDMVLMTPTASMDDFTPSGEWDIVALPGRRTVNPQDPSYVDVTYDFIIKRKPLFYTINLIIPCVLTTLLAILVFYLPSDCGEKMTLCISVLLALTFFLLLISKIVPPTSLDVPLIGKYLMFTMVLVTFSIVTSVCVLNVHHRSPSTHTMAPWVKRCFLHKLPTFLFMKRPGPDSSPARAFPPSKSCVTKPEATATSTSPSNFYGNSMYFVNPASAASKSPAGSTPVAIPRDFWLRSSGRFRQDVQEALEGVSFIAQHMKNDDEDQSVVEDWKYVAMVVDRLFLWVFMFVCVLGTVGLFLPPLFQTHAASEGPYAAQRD
UniProt P32297, 32-505 limits assumed: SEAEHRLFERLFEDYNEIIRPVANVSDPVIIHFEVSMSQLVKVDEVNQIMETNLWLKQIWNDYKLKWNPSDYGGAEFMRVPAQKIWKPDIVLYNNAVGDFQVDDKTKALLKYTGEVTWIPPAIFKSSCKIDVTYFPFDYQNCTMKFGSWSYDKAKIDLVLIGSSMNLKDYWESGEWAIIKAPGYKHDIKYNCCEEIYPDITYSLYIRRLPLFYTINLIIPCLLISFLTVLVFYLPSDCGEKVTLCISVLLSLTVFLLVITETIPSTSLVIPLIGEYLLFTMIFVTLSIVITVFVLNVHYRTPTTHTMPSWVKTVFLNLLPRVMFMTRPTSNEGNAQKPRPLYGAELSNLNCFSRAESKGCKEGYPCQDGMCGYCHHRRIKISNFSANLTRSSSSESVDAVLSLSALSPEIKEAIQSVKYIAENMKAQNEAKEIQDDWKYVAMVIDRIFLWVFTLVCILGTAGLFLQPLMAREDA
UniProt P32300, whole entry: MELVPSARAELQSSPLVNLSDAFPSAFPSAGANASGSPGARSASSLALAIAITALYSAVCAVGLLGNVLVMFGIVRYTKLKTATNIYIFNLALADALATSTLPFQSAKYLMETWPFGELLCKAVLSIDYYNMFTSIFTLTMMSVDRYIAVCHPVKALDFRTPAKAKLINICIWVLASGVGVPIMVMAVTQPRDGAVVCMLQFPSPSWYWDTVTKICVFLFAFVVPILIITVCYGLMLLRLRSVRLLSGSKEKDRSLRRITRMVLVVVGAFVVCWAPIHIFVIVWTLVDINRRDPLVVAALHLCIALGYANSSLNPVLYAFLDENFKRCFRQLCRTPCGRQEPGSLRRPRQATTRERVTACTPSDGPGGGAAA
UniProt Q9BVJ7, whole entry: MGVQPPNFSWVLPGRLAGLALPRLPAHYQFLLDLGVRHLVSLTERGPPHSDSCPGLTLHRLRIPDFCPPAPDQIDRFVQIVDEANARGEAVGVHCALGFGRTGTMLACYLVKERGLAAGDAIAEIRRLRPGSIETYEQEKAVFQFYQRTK
UniProt P33533, whole entry: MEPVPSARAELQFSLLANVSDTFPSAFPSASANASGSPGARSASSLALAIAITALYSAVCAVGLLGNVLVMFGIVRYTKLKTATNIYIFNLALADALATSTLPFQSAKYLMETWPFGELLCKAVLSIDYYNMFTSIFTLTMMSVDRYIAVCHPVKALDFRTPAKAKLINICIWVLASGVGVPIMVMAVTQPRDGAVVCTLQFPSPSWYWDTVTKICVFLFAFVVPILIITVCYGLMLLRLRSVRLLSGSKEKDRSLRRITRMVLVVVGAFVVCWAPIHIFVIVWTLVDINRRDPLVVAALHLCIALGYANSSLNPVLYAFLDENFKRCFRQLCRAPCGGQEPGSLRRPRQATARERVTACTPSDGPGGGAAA
UniProt P21917, whole entry: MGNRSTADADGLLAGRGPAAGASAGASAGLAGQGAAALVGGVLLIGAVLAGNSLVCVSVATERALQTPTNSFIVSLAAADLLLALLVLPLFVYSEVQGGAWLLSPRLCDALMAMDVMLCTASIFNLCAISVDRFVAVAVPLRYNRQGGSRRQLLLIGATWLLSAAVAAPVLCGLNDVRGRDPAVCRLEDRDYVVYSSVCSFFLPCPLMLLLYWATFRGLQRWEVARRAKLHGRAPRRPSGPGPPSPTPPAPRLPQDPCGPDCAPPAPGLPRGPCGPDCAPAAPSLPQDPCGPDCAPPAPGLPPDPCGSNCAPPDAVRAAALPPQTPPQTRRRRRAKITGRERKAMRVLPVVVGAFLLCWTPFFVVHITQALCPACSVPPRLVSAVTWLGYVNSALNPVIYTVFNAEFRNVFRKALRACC

SMILES | target or system | test | test system | conditions | how to read | measurement | value
CN(C(=O)Cc1ccccc1)[C@H]1CC[C@@]2(CCCO2)C[C@@H]1N1CCCC1 | OPRL1 | radioligand binding | CHO | added: [3H]N/OFQ | – | Ki | > 10000 nM
CC[C@H](C)[C@H](NC(=O)[C@H](Cc1ccc(O)cc1)NC(=O)[C@H](CCC(N)=O)NC(=O)[C@@H](N)CCC(=O)O)C(=O)N[C@@H](CCCCN)C(=O)N[C@@H](Cc1c[nH]c2ccccc12)C(=O)N1CCC[C@H]1C(=O)N[C@@H](Cc1c[nH]c2ccccc12)C(=O)N[C@@H](Cc1ccc(O)cc1)C(=O)N[C@H](C(=O)N[C@@H](Cc1c[nH]c2ccccc12)C(=O)N[C@@H](CC(C)C)C(=O)O)C(C)C | FPR1 (Homo sapiens, UniProt P21462, R190W) | binding, competition binding | – | 4 °C, added: formyl-Nle-Leu-Phe-Nle-Tyr-Lys-FITC 0.3 nM | – | Ki | 390 ± 30 nM
CO[C@]12CC[C@@]3(C[C@@H]1[C@@](C)(O)c1ccc(C(C)(C)C)cc1)[C@H]1Cc4ccc(O)c5c4[C@@]3(CCN1CC1CC1)[C@H]2O5 | OPRD1 | radioligand binding | CHO | added: [3H]Cl-DPDPE | – | Ki | 3.03 ± 0.61 nM
CC[C@](O)([C@H]1C[C@@]23CC[C@]1(OC)[C@@H]1Oc4c(O)ccc5c4[C@@]12CCN(CC1CC1)[C@@H]3C5)C(C)(C)C | OPRD1 | binding, radioligand displacement | CHO | added: [3H]DPDPE | – | Ki | 0.86 ± 0.02 nM
CCN(CC)C(=O)Oc1ccc(C(=O)Nc2cccc3cc[nH]c23)cc1 | Glutamate receptor ionotropic, NMDA 2A, with GluN1 (Grin2a, Rattus norvegicus, UniProt Q00959) | ion current, whole-cell patch clamp | HEK cells | concentration not given | – | activity | inactive
CO[C@]12CC[C@@]3(C[C@@H]1[C@](C)(O)c1ccccc1)[C@H]1Cc4ccc(O)c5c4[C@@]3(CCN1CC1CC1)[C@H]2O5 | OPRD1 | binding, radioligand displacement | CHO | added: [3H]DPDPE | – | Ki | 1.9 ± 0.33 nM
CCc1nc(N)nc(N)c1C#C[C@@H](C)c1cc(OC)cc(-c2ccc(C(=O)O)cc2)c1 | Riboflavin biosynthesis protein RibD (Mycobacterium tuberculosis, UniProt P71968) | inhibitor | – | added: NADPH 50 µM | – | Ki | 80 ± 6.5 nM
CO[C@]12C=C[C@@]3(C[C@@H]1[C@@H](O)c1ccccc1)[C@H]1Cc4ccc(O)c5c4[C@@]3(CCN1CC1CC1)[C@H]2O5 | Mu-type opioid receptor (Cavia porcellus, UniProt A0ACM8Q262) | binding, radioligand displacement | guinea pig brain membranes | added: [3H]DAMGO | – | Ki | 0.8 ± 0.5 nM
CC#C/C(=N\OC[C@H]1COCCN1)c1ccc2ncnc(Nc3ccc(OCc4cccc(F)c4)c(Cl)c3)c2c1 | MERTK (Homo sapiens, UniProt Q12866) | kinase activity | – | 10 µM | – | inhibition | 9.2%
CC[C@](O)([C@H]1C[C@@]23C=C[C@]1(OC)[C@@H]1Oc4c(O)ccc5c4[C@@]12CCN(CC1CC1)[C@@H]3C5)C(C)(C)C | OPRL1 | binding, radioligand displacement | CHO | added: [3H]N/OFQ | – | Ki | 187 ± 27 nM
CC[C@H](C)[C@@H](CN1CCC(C)(c2cccc(F)c2)CC1)NC(=O)[C@H]1Cc2ccc(O)cc2CN1 | KCNH2 (Homo sapiens, UniProt Q12809) | radioligand binding | hERG-expressing membranes | 60 min, pH 7.4, added: [3H]astemizole | – | Ki | 1670 nM
CC[C@@](O)(c1ccccc1)[C@H]1C[C@@]23CC[C@]1(OC)[C@@H]1Oc4c(O)ccc5c4[C@@]12CCN(CC1CC1)[C@@H]3C5 | OPRL1 | binding, radioligand displacement | CHO | added: [3H]N/OFQ | – | Ki | 396 ± 41 nM
CCC(C)(C)[C@](C)(O)[C@H]1C[C@@]23CC[C@]1(OC)[C@@H]1Oc4c(O)ccc5c4[C@@]12CCN(CC1CC1)[C@@H]3C5 | OPRL1 | radioligand binding | CHO | added: [3H]N/OFQ | – | Ki | 8.5 nM
CSc1nc(Cl)cc(Sc2nnc(-c3cc(C(F)(F)F)cc(C(F)(F)F)c3)[nH]2)n1 | Acinetobacter baumannii | – | ATCC 9955 | added: PMBN 25 µg/mL | – | MIC | 1 µg/mL (≈ 2.12 µM)
CC[C@H](C)[C@H](NC(=O)[C@H](Cc1c[nH]c2ccccc12)NC(=O)[C@H](CCC(N)=O)NC(=O)[C@H](CCCNC(=N)N)NC(=O)[C@H](Cc1c[nH]c2ccccc12)NC(=O)CNC(=O)[C@@H](NC(=O)[C@H](Cc1c[nH]c2ccccc12)NC(=O)[C@H](Cc1c[nH]c2ccccc12)NC(=O)[C@H](CC(N)=O)NC(=O)[C@H](CC(=O)O)NC(=O)[C@@H](N)CC(N)=O)[C@@H](C)O)C(=O)O | FPR1 (Homo sapiens, UniProt P21462) | binding, competition binding | – | 4 °C, added: formyl-Nle-Leu-Phe-Nle-Tyr-Lys-FITC 0.3 nM | – | Ki | 1400 ± 200 nM
CCN1CCN(Cc2ccc(NC(=O)c3ccc(C)c(/C=C/c4cnc5[nH]ccc5c4OC)c3)cc2C(F)(F)F)CC1 | ETV6-PDGFRB fusion | kinase-CDC37 interaction, cell-based kinome screen | – | 5 µM | baseline: vehicle | log2 fold change | -0.51
CO[C@]12CC[C@@]3(C[C@@H]1[C@](C)(O)CC(C)(C)C)[C@H]1Cc4ccc(O)c5c4[C@@]3(CCN1CC1CC1)[C@H]2O5 | OPRL1 | radioligand binding | CHO | added: [3H]N/OFQ | – | Ki | 18.5 ± 0.68 nM
O=C(C1CC1)N1CC2CC(C1)N2 | Neuronal acetylcholine receptor; alpha3/beta4 (Homo sapiens, UniProt P30926+P32297) | competition binding | CHO expressing human α3β4, cell membranes | added: [3H]epibatidine | – | Ki | 270 ± 63 nM
CO[C@]12CC[C@@]3(C[C@@H]1C(C)(C)O)[C@H]1Cc4ccc(O)c5c4[C@@]3(CCN1CC1CC1)[C@H]2O5 | Oprd1 (Mus musculus, UniProt P32300) | radioligand displacement | mouse brain membranes | added: [3H]naltrindole | – | Ki | 0.54 ± 0.04 nM
O=[As](O)(O)O | Dual specificity protein phosphatase 23 (Homo sapiens, UniProt Q9BVJ7) | competitive inhibitor | – | pH 5.5, added: pNPP | – | Ki | 130000 ± 40000 nM
CO[C@]12CC[C@@]3(C[C@@H]1[C@@](C)(O)C(C)(C)C)[C@H]1Cc4c(Br)cc(O)c5c4[C@@]3(CCN1CC1CC1)[C@H]2O5 | OPRL1 | radioligand binding | CHO | added: [3H]N/OFQ | – | Ki | 237 ± 64 nM
COC(=O)[C@@H]1C[C@H](OC(C)=O)C(=O)[C@H]2[C@@]1(C)CC[C@H]1C(=O)O[C@H](c3ccoc3)C[C@]21C | Oprd1 (Mus musculus, UniProt P32300) | radioligand binding | CHO membranes | added: [3H]diprenorphine | – | Ki | > 1000 nM
CO[C@]12CC[C@@]3(C[C@@H]1[C@@](C)(O)c1ccncc1)[C@H]1Cc4ccc(O)c5c4[C@@]3(CCN1CC1CC1)[C@H]2O5 | Oprd1 (Rattus norvegicus, UniProt P33533) | binding, radioligand displacement | C6 rat glioma | added: [3H]diprenorphine | – | Ki | 0.99 ± 0.43 nM
CO[C@]12CC[C@@]3(C[C@@H]1[C@@](C)(O)C(C)(C)C)[C@H]1Cc4cc(Br)c(O)c5c4[C@@]3(CCN1CC1CC1)[C@H]2O5 | OPRL1 | radioligand binding | CHO | added: [3H]N/OFQ | – | Ki | 159 ± 1.4 nM
CCCN1CCN(c2ccc3c(c2)C2CC3CCN2C(=O)OCc2ccccc2)CC1 (stereo not shown) | DRD4 (Homo sapiens, UniProt P21917) | binding, radioligand binding | – | – | – | Ki | > 10000 nM

Some of these lines once more:
SMILES | target or system | test | test system | conditions | how to read | measurement | value
O=C(C1CC1)N1CC2CC(C1)N2 | Neuronal acetylcholine receptor; alpha3/beta4 (Homo sapiens, UniProt P30926+P32297) | competition binding | CHO expressing human α3β4, cell membranes | added: [3H]epibatidine | – | Ki | 270 ± 63 nM
CO[C@]12C=C[C@@]3(C[C@@H]1[C@@H](O)c1ccccc1)[C@H]1Cc4ccc(O)c5c4[C@@]3(CCN1CC1CC1)[C@H]2O5 | Mu-type opioid receptor (Cavia porcellus, UniProt A0ACM8Q262) | binding, radioligand displacement | guinea pig brain membranes | added: [3H]DAMGO | – | Ki | 0.8 ± 0.5 nM
